Earlier results, collected from citations in different studies.
Compare with care: the assays were run in different laboratories. Numbers after ± are the reported error.
Target: EGFR

| SMILES | observed | mode | IC50 [nM] |
| --- | --- | --- | --- |
| Cc1ccc(Nc2cc(Oc3ccc4[nH]ccc4c3)ncn2)cc1S(N)(=O)=O | – | – | 18 |
| N#Cc1ccc(-c2csc(N3N=C(c4ccc(N5CCOCC5)cc4)CC3c3ccc(Cl)cc3)n2)cc1 (stereo not drawn) | kinase activity | inhibitor | 4340 |
| Cc1ccc2nc(SCc3cn(-c4cccc(C(=O)O)c4)nn3)n(Cc3ccccc3)c(=O)c2c1 | – | inhibitor | 38.5 |
| CC(C)=CC[C@@H](OC(=O)/C=C/C(=O)c1ccc(F)cc1)C1=CC(=O)c2c(O)ccc(O)c2C1=O | – | – | 22.7 |
| Oc1ccccc1 | – | – | 0.76 |
| O=C(CSc1nnc(Cn2cc(-c3ccccc3)nn2)o1)Nc1nc(-c2ccc(Br)cc2)cs1 | – | inhibitor | 160 ± 50 |
| O=C1N/C(=N/N=C/c2cc(Br)ccc2O)CS1 | – | inhibitor | 90 |
| C=CCn1c(SCC(=O)Nc2ccc(C(=O)/C=C/c3ccc(Cl)cc3)cc2)nnc1-c1cc(-c2ccccc2)nc2ccccc12 | – | inhibitor | 1300 ± 120 |
| O=C(NCCc1ccc(N2CCOCC2)cc1)c1[nH]c2ccc(Cl)cc2c1CO | – | – | 120 |

A few entries again:
| SMILES | observed | mode | IC50 [nM] |
| --- | --- | --- | --- |
| CC(C)=CC[C@@H](OC(=O)/C=C/C(=O)c1ccc(F)cc1)C1=CC(=O)c2c(O)ccc(O)c2C1=O | – | – | 22.7 |
